Experimental data of several laboratories.
Each numbered part is a random draw from the data of one study; scales do not carry over between parts. Positions count from the first letter of the parent shown.

Study 1
Target: CCNF, cyclin fold, Cln2 fusion (human)
Method: yeast growth competition, sequencing
Matrix: yeast
Setting: strong parent motif
Reference: not given
Reading: higher = stronger binding
Starting sequence: MICAL3 docking peptide (human); LQLRRQLSFSEDS
Under “normalised enrichment score”, `E11W` is recorded as 5.9.
Under “normalised enrichment score”, `Q2A` is recorded as 5.28.
`F9Q`: “normalised enrichment score” 0.248.
For `L7Q`, “normalised enrichment score” read 0.205.
For `L3D`, “normalised enrichment score” read 0.379.
`S10E` — result for “normalised enrichment score”: 5.04.
Under “normalised enrichment score”, `L3C` is recorded as 7.
`S10D`: “normalised enrichment score” 5.04.
For `E11H`, “normalised enrichment score” read 4.98.
`S10A` — result for “normalised enrichment score”: 5.42.
`Q2S` — result for “normalised enrichment score”: 6.15.
`R5V` — result for “normalised enrichment score”: 0.242.

Study 2
Target: TAR DNA-binding protein 43, full length, His tag (TARDBP, Homo sapiens, UniProt Q13148, residues 1-414)
Method: RNA Bind-n-Seq
Form: RNA
Matrix: in vitro
Tested at: 20 nM
Setting: 6-mer, flanks averaged, single round
Added: 150 mM KCl
Reference: input library
Reading: higher = stronger binding
Under “6-mer enrichment (R)”, `AUACUU` is recorded as 0.574.
`UUCAGU` — result for “6-mer enrichment (R)”: 0.603.
`AAAUUA`: “6-mer enrichment (R)” 0.643.
`CCGUGG` — result for “6-mer enrichment (R)”: 1.46.
`UGGGCC` — result for “6-mer enrichment (R)”: 1.92.
Under “6-mer enrichment (R)”, `AACGCC` is recorded as 0.634.
For `GGUGUC`, “6-mer enrichment (R)” read 1.33.
`AGCUUC`: “6-mer enrichment (R)” 0.566.
`AACGGG` — result for “6-mer enrichment (R)”: 2.17.

Study 3
Target: ABI1, truncated, D143A, DHFR fusion (Arabidopsis thaliana)
Method: DHFR PCA, deep sequencing
Matrix: yeast
Setting: methotrexate growth selection, single substitutions
Added: (+)-ABA 1.4 µM
Reference: wild-type fitted maximum
Reading: higher = stronger binding
Starting sequence: PYL1, truncated, DHFR fusion (Arabidopsis thaliana); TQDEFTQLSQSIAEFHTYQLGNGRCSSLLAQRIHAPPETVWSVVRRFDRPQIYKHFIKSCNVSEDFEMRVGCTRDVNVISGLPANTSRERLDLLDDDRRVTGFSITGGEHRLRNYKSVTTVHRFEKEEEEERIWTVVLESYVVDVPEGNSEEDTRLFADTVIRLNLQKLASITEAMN; partner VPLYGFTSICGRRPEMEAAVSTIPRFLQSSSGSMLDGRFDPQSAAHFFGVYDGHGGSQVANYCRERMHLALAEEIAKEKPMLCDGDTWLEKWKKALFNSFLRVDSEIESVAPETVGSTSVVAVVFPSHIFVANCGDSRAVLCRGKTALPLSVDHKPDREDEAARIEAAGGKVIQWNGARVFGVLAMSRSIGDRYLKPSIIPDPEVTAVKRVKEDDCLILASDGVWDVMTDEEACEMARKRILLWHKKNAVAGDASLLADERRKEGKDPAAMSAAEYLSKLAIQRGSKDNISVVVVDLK
For `M176T`, “relative binding score” read 40.9%.
`L169Y`: “relative binding score” -21.4%.
`E38H`: “relative binding score” 11.8%.
For `L94R`, “relative binding score” read -0.145%.
Under “relative binding score”, `L164A` is recorded as 67.9%.
`I79F` — result for “relative binding score”: 43%.
For `T1E`, “relative binding score” read 65.6%.
Under “relative binding score”, `T1C` is recorded as 65.3%.
`L138Y`: “relative binding score” 1.83%.
For `G148D`, “relative binding score” read 14.4%.
Under “relative binding score”, `W41S` is recorded as -20.5%.

Mixed results
With `PhoQ, residues 284 288 289 292 302 303 ALSMDL` the fold induction was 0.681 (PhoP, residues 12 14 15 18 19 LHATL (Escherichia coli, UniProt P23836); Sort-seq, refers to: YFP reporter; E. coli; PhoQ-PhoP variant library, added: 10 µM Mg2+; reference: high Mg2+ state, higher = stronger signaling).

Some of these lines once more (study 3):
Under “relative binding score”, `L164A` is recorded as 67.9%.
`I79F` — result for “relative binding score”: 43%.
For `T1E`, “relative binding score” read 65.6%.
Under “relative binding score”, `T1C` is recorded as 65.3%.
`L138Y`: “relative binding score” 1.83%.
